Published values pooled from the literature.
Every numbered part comes from another study and shows a few of its results, in no order. Positions count from the first letter of the parent shown.

Study 1
Target: Ras GTPase-activating protein-binding protein 1, full length (G3BP1, Homo sapiens, UniProt Q13283)
Chain of UniProt Q13283 (whole entry, looked up): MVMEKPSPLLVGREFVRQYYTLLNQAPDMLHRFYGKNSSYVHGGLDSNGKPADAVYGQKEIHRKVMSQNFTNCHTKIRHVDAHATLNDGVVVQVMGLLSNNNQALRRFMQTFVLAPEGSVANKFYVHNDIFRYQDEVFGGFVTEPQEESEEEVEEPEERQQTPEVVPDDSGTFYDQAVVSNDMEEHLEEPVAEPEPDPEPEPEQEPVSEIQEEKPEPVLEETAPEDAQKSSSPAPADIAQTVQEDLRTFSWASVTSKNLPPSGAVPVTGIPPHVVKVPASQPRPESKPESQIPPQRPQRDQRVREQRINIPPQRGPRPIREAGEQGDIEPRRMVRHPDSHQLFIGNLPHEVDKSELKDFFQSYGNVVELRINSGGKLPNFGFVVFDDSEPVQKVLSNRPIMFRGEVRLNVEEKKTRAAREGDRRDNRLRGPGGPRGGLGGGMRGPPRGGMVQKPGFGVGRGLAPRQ
Technique: RNA Bind-n-Seq
Form: RNA
Sample: in vitro
Concentration: 200 nM
Notes: whole 134-nt RNA, ends assumed
Added: 150 mM LiCl
Baseline: input library
Direction: higher = stronger binding
All molecules: 7-deaza-guanosine replaces G
Strand | log2 enrichment
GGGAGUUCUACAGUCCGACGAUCCUAGAGAGCUGUAGUACACAUGGAUGAACGACGAGAAGAACAAAUUGUACAGUUACUGAAUUCUGUUCAAGCGAAGAAUGAUAAAGAGUCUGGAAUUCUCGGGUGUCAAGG | -1.14
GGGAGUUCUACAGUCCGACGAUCCUCAAGUCCUGUGCUACACAUCGUAUGUACCGAAUCGGAAAAAGGAGGAAAGGAAAGUAUUAUGUUACGCCGUUCGGAUCUGCACUUCCAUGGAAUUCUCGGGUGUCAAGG | -0.559
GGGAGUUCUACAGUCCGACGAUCUUUCGGCUACCCCCAGUUCUUCUUUGCCAAAGCGUACACGUGAAGAGGAAGAGGAUAGCACCAUAGAAGCAUCAGACCAAGUCUCUGAUGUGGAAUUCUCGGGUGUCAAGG | -1.75
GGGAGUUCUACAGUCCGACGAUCUGGAGAGGGAAGUCCCAAUGGUGCUAGAAUGGUGCUGCAGUGGCAGAAGACGGCUCACAAGUGAGGUCUGGAAGAACAACAGGGAAGACAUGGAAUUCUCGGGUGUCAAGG | 0.167
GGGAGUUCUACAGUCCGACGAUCACCAUGCAGGUGGGCAUCUUUGGGAAGUGGGGCAAGGGGGGGAUAGGGAGGGGGGUAACACUUUGGGAUCAGGUGGUCCCAGGUCGUUUCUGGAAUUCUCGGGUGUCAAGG | 0.455
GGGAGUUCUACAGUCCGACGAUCUCAUGUGGAUGAAGCAGAAAAAGAAGCUCAGAAGAAGCCAGCUGAAUCUCAAAAAAUAGAGCGUGAAGAUGCCCUGGCUUUUAAUUCAGCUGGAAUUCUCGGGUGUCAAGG | -2.21

Study 2
Target: TAR DNA-binding protein 43, full length, His tag (TARDBP, Homo sapiens, UniProt Q13148, residues 1-414)
Technique: RNA Bind-n-Seq
Form: RNA
Sample: in vitro
Concentration: 20 nM
Notes: 6-mer, flanks averaged, single round
Added: 150 mM KCl
Baseline: input library
Direction: higher = stronger binding
Strand | 6-mer enrichment (R)
UAUUUA | 0.645
CACAUU | 0.621
UCGUGA | 0.746
AUCAAC | 0.578
GAGGCA | 1.64
GCUUAA | 0.65
CUGUCC | 0.627
CACUAU | 0.593
GCGACA | 0.965
AUCCCG | 0.61
UUGAUA | 0.64
GUAUCG | 0.847
GUAAUG | 0.926
GUCUCA | 0.623

Study 3
Target: ABI1, truncated, D143A, DHFR fusion (Arabidopsis thaliana, UniProt P49597)
Technique: DHFR PCA, dose-response
Sample: yeast
Notes: Hill fit, not affinity, not high confidence
Added: (+)-ABA, dose series
Direction: lower = more sensitive
Starting sequence: PYL1, truncated, DHFR fusion (Arabidopsis thaliana, UniProt Q8VZS8); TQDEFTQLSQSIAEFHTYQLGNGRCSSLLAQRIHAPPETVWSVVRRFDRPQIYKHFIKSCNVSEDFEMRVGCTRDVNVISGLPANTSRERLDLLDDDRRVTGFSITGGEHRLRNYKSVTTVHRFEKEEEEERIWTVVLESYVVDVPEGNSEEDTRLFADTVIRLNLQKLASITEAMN
Substitution | ABA EC50 [µM]
F47P | 472
N149T | 107
H110L | 917
A158P | 1620
G71I | 44.7
T101R | 1780
V121P | 2.68
T135W | 1.84
K54E | 165
L166G | 854
V137Y | 438
V161N | 283
S140W | 275
T135P | 71
I105Y | 0.0595
Q51K | 190
V137P | 745

Study 4
Target: RING finger protein unkempt homolog, zinc fingers 1-6, GST-SBP tag (UNK, Homo sapiens, UniProt Q9C0B0, residues 30-357)
Chain of UniProt Q9C0B0 (30-357, looked up): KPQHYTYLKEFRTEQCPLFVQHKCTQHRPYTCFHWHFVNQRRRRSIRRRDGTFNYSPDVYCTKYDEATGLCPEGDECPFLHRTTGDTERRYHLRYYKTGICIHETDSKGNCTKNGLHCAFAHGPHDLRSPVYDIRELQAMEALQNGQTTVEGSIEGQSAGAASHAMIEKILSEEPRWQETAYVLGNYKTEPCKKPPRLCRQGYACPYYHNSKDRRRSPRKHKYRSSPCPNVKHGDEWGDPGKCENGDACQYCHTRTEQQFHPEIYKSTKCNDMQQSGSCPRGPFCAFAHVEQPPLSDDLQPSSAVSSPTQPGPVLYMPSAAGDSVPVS
Technique: RNA Bind-n-Seq
Form: RNA
Sample: in vitro
Concentration: not given
Notes: RNA with constant flanks, human-mouse chimeric sites, ends assumed
Baseline: input RNA pool
Direction: higher = stronger binding
Strand | bound/input enrichment [ratio]
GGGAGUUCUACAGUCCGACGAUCCCUCUGCCCCGCUCUGCAGCCUGGGGACACUGGGCUGGGACCAGAAUCCAGCUUUCUUUUAAAACUCUAUAUUUUUUUGUAUCCCGUGACAUUUCAUUUUUUUUAAAUAGUGUAUUUUUUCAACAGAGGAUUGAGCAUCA | 14.2
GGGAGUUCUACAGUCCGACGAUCUUACCCGAGAACGAGGAUGAGCUGGAGAGCACCAACAGGCGCUACACCAAGAGAGACUGCAGCACUUUCCUCAGAACUAGUGAGACGGGCAUCGUGGAUCAGGUUAUGGUCACUCUCAACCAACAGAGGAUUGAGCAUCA | 0.168
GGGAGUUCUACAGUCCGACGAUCCUCGGCACCGGCACGCUUUACAUCGCUGAGAGCCGCCUGUCCUGGUUAGAUGGUUCGGGAUUAGGAUUCUCACUGGAAUACCCCACCAUUAGUUUACAUGCGGUGUCCAGGGAUCCAAACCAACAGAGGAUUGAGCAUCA | 0.337
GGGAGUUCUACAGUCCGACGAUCCUUAAUGUUAAUAUUUUUGAAUAAAUGUAAAACCAUGGUCUGCUUUUGGUACAACACGCAUUAAUAAAAGGUUAAGUUUUGUUUUCCACUGAAGUACGUAAUACUUACUCAGAAAAAAACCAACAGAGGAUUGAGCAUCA | 0.434
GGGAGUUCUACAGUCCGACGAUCCUGAGGAUACCACUGAAGAGACCUUAAAAGAAUCAUUUGAGGGCUCUGUUCGUGCAAAGGAUAGUUAUGAUCGGGAAACUGGUUCUUCCAAAGGGUUUUGGUUUUGUGACUUUAAUAGUGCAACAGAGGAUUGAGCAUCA | 0.376
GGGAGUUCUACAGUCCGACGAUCGAGUCGAGCAAACUUGAAACAAUUCGUUAUCUUGCAGAGCUUCGGUGCACUUGCUUGUGGCAAUAGCUGGGGUUUUAUAGGUUCUGGAAGGAGAACUGACGAUGAUGCUGCCGCUGCUGCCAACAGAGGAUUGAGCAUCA | 0.7
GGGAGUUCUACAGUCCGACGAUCCGCUGGCCCAAGCUGAUGGACUCUGAUGGCCUCCAUCUCUCAGGCACGUGUGCCUUCUCUUAGUCCCUUCUGGGUUGAUGUUAUGAACAGUAUCAUGGUGGUUUGAAAGCACCAGCUUUGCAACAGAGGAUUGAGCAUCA | 0.306

Excerpt of the above (study 4):
Strand | bound/input enrichment [ratio]
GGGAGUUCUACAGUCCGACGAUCUUACCCGAGAACGAGGAUGAGCUGGAGAGCACCAACAGGCGCUACACCAAGAGAGACUGCAGCACUUUCCUCAGAACUAGUGAGACGGGCAUCGUGGAUCAGGUUAUGGUCACUCUCAACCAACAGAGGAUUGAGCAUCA | 0.168
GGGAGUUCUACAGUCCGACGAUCCUCGGCACCGGCACGCUUUACAUCGCUGAGAGCCGCCUGUCCUGGUUAGAUGGUUCGGGAUUAGGAUUCUCACUGGAAUACCCCACCAUUAGUUUACAUGCGGUGUCCAGGGAUCCAAACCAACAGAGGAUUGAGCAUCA | 0.337
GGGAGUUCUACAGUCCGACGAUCCUUAAUGUUAAUAUUUUUGAAUAAAUGUAAAACCAUGGUCUGCUUUUGGUACAACACGCAUUAAUAAAAGGUUAAGUUUUGUUUUCCACUGAAGUACGUAAUACUUACUCAGAAAAAAACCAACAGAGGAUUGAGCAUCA | 0.434
